Measurements pooled from the literature.
A part holds a random share of what one study measured.

Block 1
Target: Prothrombin, mature alpha-thrombin (F2, Homo sapiens, UniProt P00734)
Method: aptamer microarray, sandwich
Molecule type: DNA with 2'F-ANA
Sample: in vitro
Concentration: 200 nM
Notes: whole 15-mer aptamer, many near background
Together with: Cy3 exosite-II aptamer, 400 nM
Direction: higher = stronger binding
Sequence: GGTTGGTGTGGTTGG
Modification | mean fluorescence intensity [a.u.]
2'F-ANA at 3 4 6 10 13 14 | 179
2'F-ANA at 1 8 9 10 11 13 14 | 81.6
2'F-ANA at 1 2 3 8 9 10 11 13 | 82
2'F-ANA at 1 3 7 8 9 12 13 14 15 | 140
2'F-ANA at 2 6 9 10 12 13 15 | 127
2'F-ANA at 2 3 5 9 11 14 | 71.6
2'F-ANA at 2 5 9 10 11 15 | 84.5
2'F-ANA at 2 9 11 14 15 | 120
2'F-ANA at 1 3 4 7 10 | 65.8
2'F-ANA at 1 2 5 8 9 10 11 15 | 51.2
2'F-ANA at 3 4 5 6 7 9 10 11 | 51.2
2'F-ANA at 1 2 3 5 7 11 13 14 | 63.4
2'F-ANA at 5 6 9 13 14 | 45.2
2'F-ANA at 3 6 11 14 | 509
2'F-ANA at 4 5 6 9 10 13 14 15 | 44.8
2'F-ANA at 2 6 7 10 11 12 15 | 129
2'F-ANA at 3 8 11 12 | 1280
2'F-ANA at 2 5 6 | 83.1
2'F-ANA at 2 5 6 9 10 11 13 | 48
2'F-ANA at 3 4 5 6 8 10 12 | 55.6
2'F-ANA at 1 2 3 6 7 8 13 14 15 | 73.2

Block 2
Target: RNA binding protein fox-1 homolog 2, RRM domain, GST-SBP tag (RBFOX2, Homo sapiens, UniProt O43251-10, residues 100-194)
Method: RNA Bind-n-Seq
Molecule type: RNA
Sample: in vitro
Concentration: 365 nM
Notes: natural RNA segment, single round, ends assumed
Reference: no-protein control
Direction: higher = stronger binding
Target sequence (chain): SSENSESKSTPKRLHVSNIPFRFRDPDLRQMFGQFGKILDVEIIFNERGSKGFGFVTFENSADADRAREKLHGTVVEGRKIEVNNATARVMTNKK
Sequence | RBNS enrichment (R)
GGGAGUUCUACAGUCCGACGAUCUUUCCAUUUUGAAUGUGUUUGGACUAAAACAAUAAACUACUGAUGUCUGCAGCAUUUAUCUAUGUCCUAAUUUAAUCUGAAGUUAUAUUUUCUCAAAUAUUUUCUUCCAGUGGAAUUCUCGGGUGCCAA | 0.666
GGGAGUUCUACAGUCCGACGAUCCAAAAGGGAUUUUUAUUUCACAGCUAAAGGGAAAAUAGGUGGAGAAGUUAAAAAAUAAUGUCUGAUCCUGUUCCUAAGUUCCAAACUAUAGCCAACACUCUGAUGCUGCUUGGAAUUCUCGGGUGCCAA | 0.488
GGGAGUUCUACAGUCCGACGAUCCCCCCGCCCGUGUGUGUAAACUGGCGAUGUGCCAGCUAGGAUGAAGCUUGCCACUCGGCUAGCGAAAAUAAUUAACAUUAUUAUGAGAAAGUGGAUUUAUCUAAAGUGGAUGGAAUUCUCGGGUGCCAA | 1.26
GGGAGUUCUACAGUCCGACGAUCGUCCCGAGUAGGUGCCCAGCCCCUCUUGGGUACCAGAGUGGUUAUAGCGACACACUCCUCAUCCAGGCUUCCCAAGAUACACUAGCUCUGGGACACCCCAGGCAUGCUCUUGGAAUUCUCGGGUGCCAA | 0.564
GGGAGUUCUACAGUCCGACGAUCCUUUUCGAAGCUGUUAAUUUUUCUUAGUGUUGUGGACACUGCAGACUUGUCCAGUGCUCCCACGGCCUGUACGGACACUGUGGAAGGCCUCCCUCUGUCGGCUUUUUGCCUGGAAUUCUCGGGUGCCAA | 0.507
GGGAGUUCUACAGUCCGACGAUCGGAAAAUCCCAUUUUAUAGAUAGAGGUGCAAUCACAUAAAAAUGUGGCCAGGCAGGAUUAAAGGUAUUCUAAAUCCUUACCACGGGGCAUUUUCUGGAUGCAAAGGCACUUGGAAUUCUCGGGUGCCAA | 0.366
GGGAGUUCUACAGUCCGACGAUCAUUUCAGAUUGAGCACUUCACUAUCAAAAAUACUAACAUCACAUGGCUUGAAGAGUAACCAUCAGAGCUGAAUCAUCCAAGUAAGAACAAGUACCAUUGUUGAUUGAUAAUGGAAUUCUCGGGUGCCAA | 0.605
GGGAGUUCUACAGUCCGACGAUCGCUGAGCUGGGAAAGAAGAGAGCAGGUUUUGCCUGGCUGUGGUUCCCUGCCCAAGGUGCUGACCCAAUCGCUGCCAAAAGAGAGUCAAUCAGAAUAUCCAAGUCCUGUAUUGGAAUUCUCGGGUGCCAA | 0.578
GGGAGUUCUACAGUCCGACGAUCUGUGCUGAGACAGUUGAUGUGAUGCAAACUAUUCUUGGAGUGUGUUGUUUUCUUUGGCCCAAGGGUAAACUAAAAUACCUGUGAACUGCAAACUUGCUUGUGAUUGACUUUGGAAUUCUCGGGUGCCAA | 2.97
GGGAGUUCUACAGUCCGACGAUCGUUUGAGAGAUGUCUUUCAGUUUUCUUUUCCUGCAUCAUACCUGGAAUGCAUGCAGCCUGCUGUUGGUACCCUGCUCACCUGUGUCUUUCUUACCCAGGAGGCUUCUCUCUGGAAUUCUCGGGUGCCAA | 1.34
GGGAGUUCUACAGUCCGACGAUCGACAACGCAGACACGCUCUACGGAGGCCUGCUGAUAAAGGGCUCAGCCUUGCCGUGUGCUGCUUCUCAUCACUGCACACAAGUGCCAUGCUUUGCCACCACCACCAAGCAUGGAAUUCUCGGGUGCCAA | 0.469
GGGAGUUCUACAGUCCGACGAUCGUCAUGACACUUAGUAAGUUUGCUUCCUUUCUCUGUCAUUUGAUCCUAAGGUAACAUAUGUCUCACAUGUAUUCAGACAUACAGGAUGCUAAUCCACCUUGCAUCCUGCUUGGAAUUCUCGGGUGCCAA | 0.304

Block 3
Target: Ras GTPase-activating protein-binding protein 1, full length (G3BP1, Homo sapiens, UniProt Q13283)
Chain of UniProt Q13283 (whole entry, looked up): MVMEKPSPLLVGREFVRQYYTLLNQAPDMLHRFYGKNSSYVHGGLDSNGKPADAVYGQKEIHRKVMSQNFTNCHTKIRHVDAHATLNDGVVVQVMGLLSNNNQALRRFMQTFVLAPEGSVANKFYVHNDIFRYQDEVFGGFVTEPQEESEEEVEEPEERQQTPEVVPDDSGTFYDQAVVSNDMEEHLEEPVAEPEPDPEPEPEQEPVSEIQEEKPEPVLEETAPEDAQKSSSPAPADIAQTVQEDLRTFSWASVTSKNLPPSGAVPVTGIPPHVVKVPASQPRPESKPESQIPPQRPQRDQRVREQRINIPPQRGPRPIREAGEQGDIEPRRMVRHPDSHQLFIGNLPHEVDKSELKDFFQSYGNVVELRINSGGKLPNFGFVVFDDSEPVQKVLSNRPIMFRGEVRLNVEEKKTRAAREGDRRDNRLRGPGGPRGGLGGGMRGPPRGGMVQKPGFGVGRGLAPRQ
Method: RNA Bind-n-Seq
Molecule type: RNA
Sample: in vitro
Concentration: 200 nM
Notes: whole 134-nt RNA, ends assumed
Together with: 150 mM KCl
Reference: input library
Direction: higher = stronger binding
Sequence | log2 enrichment
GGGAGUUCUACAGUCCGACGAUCAGUCCUGUGCUACACAUCGUAUGUACCGAAUCGGGAAAAAAAGGGUGGGAAAAAGGGAAAGUAUUAUGUUACGCCGUUCGGAUCUGCACUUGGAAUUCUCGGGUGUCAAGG | 0.0812
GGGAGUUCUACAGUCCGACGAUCCCUGUGCUACACAUCGUAUGUACCGAAUCGGGGAGGGGUUUUUUUGGGGAAAAAAAGGGGAAAGUAUUAUGUUACGCCGUUCGGAUCUGCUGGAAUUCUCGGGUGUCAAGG | -0.048
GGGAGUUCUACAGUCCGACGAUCGUCCUGUGCUACACAUCGUAUGUACCGAAUCGGGCCCCCGGGCCCCCGGCCCCCGGGGAAAGUAUUAUGUUACGCCGUUCGGAUCUGCACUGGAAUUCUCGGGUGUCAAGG | -0.564
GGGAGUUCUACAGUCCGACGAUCCUCAAGUCCUGUGCUACACAUCGUAUGUACCGAAUCGGGGAGGGAGGGGAGGGGAAAGUAUUAUGUUACGCCGUUCGGAUCUGCACUUCCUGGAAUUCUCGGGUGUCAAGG | 1.43
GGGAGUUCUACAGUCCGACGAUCCUGUGCUACACAUCGUAUGUACCGAAUCGGGGAAAAAAGGGGAAAAAAGGGAAAAAAGGGGAAAGUAUUAUGUUACGCCGUUCGGAUCUGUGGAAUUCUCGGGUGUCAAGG | -0.204
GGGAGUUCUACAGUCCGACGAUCGCAGCAAGUAAAAACAAAUGGAAAUGCUUCGGAUAGUGGCAGGGGUGGGGGUUGCUAAGGAAAGGGUGGGAUGGGAGUGGGUAAAGAGUUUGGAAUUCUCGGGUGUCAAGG | 0.674
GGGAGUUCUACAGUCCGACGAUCAGUCCUGUGCUACACAUCGUAUGUACCGAAUCGGAAAAAAAGGAAAGGUUUUUUUGGAAAGUAUUAUGUUACGCCGUUCGGAUCUGCACUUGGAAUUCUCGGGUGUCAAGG | -1.74
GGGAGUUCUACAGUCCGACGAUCGCAGGAACUAAAAACAAAUGGAAAUGCUUCGGAUAGUGGCAGGGGUGGGGGUUGCUAAGGAAAGGGUGGGAUGGGAGUGGGUAAAGAGUUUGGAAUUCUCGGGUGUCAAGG | 1.29
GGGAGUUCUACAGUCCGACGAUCCUCAAGUCCUGUGCUACACAUCGUAUGUACCGAAUCGGAGGUUUUUGGAAAGGAAAGUAUUAUGUUACGCCGUUCGGAUCUGCACUUCCAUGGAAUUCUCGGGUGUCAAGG | -0.619
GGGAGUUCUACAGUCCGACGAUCCACAGACAACACGCACCCACACAGACACAGAGGGAAGGGGUUGGGAUGGGGACAGGGUGCACAGCAGGGAGGGGUAGGACCCCAGCCCCUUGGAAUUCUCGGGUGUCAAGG | 1.79

Block 4
Target: Interferon regulatory factor 7, full length, phosphomimetic (IRF7, Homo sapiens, UniProt Q92985, residues 1-503, S471D/S472D/S475D/S476D/S477D/S483D/S484D/S487D)
Method: protein-binding microarray
Molecule type: double-stranded DNA, one strand shown
Sample: in vitro
Concentration: 2200 nM top
Notes: 60-bp whole probe
Together with: salmon DNA 0.4 mg/ml
Reference: random background probes
Direction: higher = stronger binding
All sequences stand within: GCCTAGCAC … GTCTTGATTCGCTTGACGCTGCTG
Construct (chain): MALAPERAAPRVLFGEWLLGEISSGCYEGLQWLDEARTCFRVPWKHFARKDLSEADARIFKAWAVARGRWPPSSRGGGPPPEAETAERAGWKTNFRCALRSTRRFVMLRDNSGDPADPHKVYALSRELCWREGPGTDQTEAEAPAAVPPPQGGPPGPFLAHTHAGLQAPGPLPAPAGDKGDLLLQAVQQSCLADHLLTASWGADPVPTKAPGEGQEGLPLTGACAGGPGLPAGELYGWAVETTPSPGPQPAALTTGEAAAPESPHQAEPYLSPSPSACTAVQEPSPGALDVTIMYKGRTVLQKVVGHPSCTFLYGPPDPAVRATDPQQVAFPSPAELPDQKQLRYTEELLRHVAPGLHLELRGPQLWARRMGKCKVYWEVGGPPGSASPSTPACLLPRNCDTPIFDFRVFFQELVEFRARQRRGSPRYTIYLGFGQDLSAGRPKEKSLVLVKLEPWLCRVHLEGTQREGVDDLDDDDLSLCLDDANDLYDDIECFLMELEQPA
Sequence | fitted relative affinity
GACGGACTGGACACGGGGGACGTGCTA | -0.207 z-score
TTAGGTTTCTTTTATTCAAAGTGCTAG | 0.925 z-score
GACGGACTGGTTTTCCTGACGTGCTAG | 0.289 z-score
TCACCACTTTCTTTTGCACTGTGCTAG | 3.06 z-score
GACGATATCGGTTTTCGAGACGTGCTA | 2.47 z-score
GACGACCTGGGGTTTCGAGACGTGCTA | 0.675 z-score
TGTTTTTGCTTTCTTTATGCGTGCTAG | 4.9 z-score
GACGGTATCCGGTATCGGGACGTGCTA | -0.152 z-score
GACGAACTGAGTCCCGAGACGTGCTAG | 0.235 z-score
TTAGGATTCGACTATCGGTTAGTGCTA | 0.512 z-score
CACGGACTGCTTTTCCTGACGTGCTAG | 0.671 z-score
GACGGTCTCGGGATCGGGACGTGCTAG | -0.419 z-score
TTAGGACTGGGATTGGGTTAGTGCTAG | -0.464 z-score
GACGGACTGGTTATCGGGACGTGCTAG | -0.198 z-score
TTAGATATCCGGACTGGATTAGTGCTA | -0.306 z-score
TTAGGACTGGGCCTCGGTTAGTGCTAG | -0.641 z-score
GCCTTTATATACCTGAATATGTGCTAG | 0.805 z-score
GACGATATGGGGACTGGAGACGTGCTA | -0.0822 z-score
GACGGTATGGACTTTCGGGACGTGCTA | 2.36 z-score
TTAGGTTTCCGTCTCCTTTAGTGCTAG | 2.78 z-score
TCATCATTGCCTATTTTACTGTGCTAG | 1.48 z-score
TCAAGTCTCAACCCCCAAACTGTGCTA | 0.0435 z-score
TTAGGTCTCCTGCTGCTTTAGTGCTAG | 0.397 z-score
TTAGAGTTCAGTTCCGATTAGTGCTAG | 0.654 z-score
CTCCTCTCTGGGTCAAAGGTGTGCTAG | 0.291 z-score

For quick reference, copied from above (block 1):
Modification | mean fluorescence intensity [a.u.]
2'F-ANA at 1 2 5 8 9 10 11 15 | 51.2
2'F-ANA at 3 4 5 6 7 9 10 11 | 51.2
2'F-ANA at 1 2 3 5 7 11 13 14 | 63.4
2'F-ANA at 5 6 9 13 14 | 45.2
2'F-ANA at 3 6 11 14 | 509
